Measured values collected from several papers.
Each numbered part is a random draw from the data of one study; scales do not carry over between parts.
Sequence of UniProt Q13470 (whole entry, looked up): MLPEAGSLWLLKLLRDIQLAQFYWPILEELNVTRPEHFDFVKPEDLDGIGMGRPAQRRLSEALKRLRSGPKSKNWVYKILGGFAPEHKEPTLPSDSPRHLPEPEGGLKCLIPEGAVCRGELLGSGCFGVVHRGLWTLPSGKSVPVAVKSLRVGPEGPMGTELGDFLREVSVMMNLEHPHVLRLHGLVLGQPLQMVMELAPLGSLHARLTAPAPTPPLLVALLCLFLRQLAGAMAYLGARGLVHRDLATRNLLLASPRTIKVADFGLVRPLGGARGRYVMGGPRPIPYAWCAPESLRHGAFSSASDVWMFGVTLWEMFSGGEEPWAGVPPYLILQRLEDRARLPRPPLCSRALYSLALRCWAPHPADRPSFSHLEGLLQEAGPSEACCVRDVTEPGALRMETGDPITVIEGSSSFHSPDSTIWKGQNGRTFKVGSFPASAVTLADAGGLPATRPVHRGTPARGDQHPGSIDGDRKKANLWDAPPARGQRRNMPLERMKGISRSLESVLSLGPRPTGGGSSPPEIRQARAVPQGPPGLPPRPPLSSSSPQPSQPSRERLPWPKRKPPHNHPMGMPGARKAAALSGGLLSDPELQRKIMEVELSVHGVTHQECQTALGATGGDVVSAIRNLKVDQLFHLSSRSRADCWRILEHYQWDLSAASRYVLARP
Sequence of UniProt O75385 (whole entry, looked up): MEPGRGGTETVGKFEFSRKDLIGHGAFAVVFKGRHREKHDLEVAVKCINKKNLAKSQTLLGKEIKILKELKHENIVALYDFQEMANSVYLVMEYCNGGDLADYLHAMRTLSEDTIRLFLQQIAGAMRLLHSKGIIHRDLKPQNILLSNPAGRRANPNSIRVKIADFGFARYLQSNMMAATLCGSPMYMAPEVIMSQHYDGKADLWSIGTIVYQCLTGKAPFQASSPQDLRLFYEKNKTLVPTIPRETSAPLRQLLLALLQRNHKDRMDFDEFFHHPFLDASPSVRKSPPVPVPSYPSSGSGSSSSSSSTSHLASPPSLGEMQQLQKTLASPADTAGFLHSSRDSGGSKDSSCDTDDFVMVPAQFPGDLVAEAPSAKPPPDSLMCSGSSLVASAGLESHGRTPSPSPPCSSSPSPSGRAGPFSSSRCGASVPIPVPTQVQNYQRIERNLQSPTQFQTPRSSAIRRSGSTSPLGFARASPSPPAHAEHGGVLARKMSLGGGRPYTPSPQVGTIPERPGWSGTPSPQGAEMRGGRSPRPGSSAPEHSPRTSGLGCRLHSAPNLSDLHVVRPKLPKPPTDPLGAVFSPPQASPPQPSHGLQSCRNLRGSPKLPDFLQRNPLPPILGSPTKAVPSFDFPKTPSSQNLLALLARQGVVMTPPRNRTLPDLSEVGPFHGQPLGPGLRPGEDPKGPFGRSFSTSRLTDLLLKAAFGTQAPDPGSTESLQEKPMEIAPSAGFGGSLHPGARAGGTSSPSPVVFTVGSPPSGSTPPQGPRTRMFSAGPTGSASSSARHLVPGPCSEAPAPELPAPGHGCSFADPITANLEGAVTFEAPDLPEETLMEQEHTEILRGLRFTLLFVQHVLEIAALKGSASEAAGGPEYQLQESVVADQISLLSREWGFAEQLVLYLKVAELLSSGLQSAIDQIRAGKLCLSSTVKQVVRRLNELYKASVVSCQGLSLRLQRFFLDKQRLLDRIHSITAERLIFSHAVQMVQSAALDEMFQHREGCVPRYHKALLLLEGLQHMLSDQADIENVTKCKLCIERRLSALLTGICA
Sequence of UniProt P45984 (whole entry, looked up): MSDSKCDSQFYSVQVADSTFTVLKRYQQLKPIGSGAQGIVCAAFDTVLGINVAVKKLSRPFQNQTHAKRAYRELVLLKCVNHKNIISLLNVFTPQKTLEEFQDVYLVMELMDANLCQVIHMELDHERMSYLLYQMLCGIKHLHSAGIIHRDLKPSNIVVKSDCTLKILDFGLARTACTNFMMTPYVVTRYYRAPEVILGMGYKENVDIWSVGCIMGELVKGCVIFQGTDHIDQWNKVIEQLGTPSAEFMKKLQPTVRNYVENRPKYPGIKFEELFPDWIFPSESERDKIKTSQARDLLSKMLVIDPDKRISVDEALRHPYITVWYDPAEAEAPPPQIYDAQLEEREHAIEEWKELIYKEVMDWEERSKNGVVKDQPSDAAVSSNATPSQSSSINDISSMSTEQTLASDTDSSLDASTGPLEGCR
Sequence of UniProt O75676 (whole entry, looked up): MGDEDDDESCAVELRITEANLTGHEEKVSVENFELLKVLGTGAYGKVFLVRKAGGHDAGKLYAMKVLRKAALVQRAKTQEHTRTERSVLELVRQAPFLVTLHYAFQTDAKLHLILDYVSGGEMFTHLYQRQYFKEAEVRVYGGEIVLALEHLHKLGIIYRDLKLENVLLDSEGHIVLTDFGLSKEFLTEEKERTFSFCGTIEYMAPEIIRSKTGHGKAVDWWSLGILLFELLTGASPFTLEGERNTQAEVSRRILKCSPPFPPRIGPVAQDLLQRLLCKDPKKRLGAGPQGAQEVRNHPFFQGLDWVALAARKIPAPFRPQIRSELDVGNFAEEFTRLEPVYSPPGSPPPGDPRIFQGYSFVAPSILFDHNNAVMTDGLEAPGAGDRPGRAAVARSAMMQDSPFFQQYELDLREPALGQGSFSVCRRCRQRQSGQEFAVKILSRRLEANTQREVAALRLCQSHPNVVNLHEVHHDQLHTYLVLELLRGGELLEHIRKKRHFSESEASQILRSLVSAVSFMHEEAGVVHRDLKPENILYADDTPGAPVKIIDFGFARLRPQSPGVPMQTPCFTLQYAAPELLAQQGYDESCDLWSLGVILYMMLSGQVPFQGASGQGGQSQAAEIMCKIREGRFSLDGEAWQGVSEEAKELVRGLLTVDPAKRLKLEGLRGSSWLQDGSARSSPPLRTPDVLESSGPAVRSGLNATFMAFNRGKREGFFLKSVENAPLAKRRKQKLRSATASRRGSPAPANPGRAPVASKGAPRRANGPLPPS
Sequence of UniProt P51813 (whole entry, looked up): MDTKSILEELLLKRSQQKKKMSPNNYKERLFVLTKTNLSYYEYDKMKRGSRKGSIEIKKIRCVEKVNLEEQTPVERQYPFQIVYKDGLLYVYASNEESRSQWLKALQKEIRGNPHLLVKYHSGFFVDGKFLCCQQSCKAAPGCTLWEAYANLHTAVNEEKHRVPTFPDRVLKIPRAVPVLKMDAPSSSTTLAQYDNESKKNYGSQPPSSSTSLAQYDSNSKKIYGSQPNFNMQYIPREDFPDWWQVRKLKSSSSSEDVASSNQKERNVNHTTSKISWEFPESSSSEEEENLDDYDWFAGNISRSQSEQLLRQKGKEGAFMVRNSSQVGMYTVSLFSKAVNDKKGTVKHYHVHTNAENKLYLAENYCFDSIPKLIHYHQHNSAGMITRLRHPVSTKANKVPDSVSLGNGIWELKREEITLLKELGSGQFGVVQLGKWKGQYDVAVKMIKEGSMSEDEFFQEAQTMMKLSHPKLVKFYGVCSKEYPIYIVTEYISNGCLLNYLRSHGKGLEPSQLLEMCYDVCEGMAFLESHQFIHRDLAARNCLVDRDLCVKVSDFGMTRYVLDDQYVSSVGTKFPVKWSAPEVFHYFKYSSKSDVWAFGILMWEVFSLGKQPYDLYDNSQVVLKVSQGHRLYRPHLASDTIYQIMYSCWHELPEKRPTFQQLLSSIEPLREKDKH
Sequence of UniProt Q9UQ88 (whole entry, looked up): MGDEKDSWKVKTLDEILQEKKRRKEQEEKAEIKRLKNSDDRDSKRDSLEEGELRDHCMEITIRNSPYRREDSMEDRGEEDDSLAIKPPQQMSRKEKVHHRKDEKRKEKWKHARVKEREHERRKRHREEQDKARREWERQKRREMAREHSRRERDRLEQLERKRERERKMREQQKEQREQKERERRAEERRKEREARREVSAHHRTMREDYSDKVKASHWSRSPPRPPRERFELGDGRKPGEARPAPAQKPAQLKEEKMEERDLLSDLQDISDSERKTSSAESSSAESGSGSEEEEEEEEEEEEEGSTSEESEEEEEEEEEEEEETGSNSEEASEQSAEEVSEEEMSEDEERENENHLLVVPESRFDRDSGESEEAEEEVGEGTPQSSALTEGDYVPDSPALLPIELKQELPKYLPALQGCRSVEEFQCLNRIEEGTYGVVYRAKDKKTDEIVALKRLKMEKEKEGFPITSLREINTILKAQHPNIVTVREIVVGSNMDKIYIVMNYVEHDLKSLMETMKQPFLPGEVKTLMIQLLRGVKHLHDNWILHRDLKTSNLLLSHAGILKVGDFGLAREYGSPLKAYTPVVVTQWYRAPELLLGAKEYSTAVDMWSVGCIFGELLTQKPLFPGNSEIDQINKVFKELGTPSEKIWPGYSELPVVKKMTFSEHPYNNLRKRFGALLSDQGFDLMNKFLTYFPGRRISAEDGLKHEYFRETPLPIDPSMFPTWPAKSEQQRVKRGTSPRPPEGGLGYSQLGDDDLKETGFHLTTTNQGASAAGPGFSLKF

Sample 1 — observed: enzyme activity; mode: inhibitor; concentration: 0.5 µM; reference: control; endpoint: remaining activity
Target: Tyrosine-protein kinase Lyn, isoform B (LYN, Homo sapiens, UniProt P07948)
Sequence of UniProt P07948 (whole entry, looked up): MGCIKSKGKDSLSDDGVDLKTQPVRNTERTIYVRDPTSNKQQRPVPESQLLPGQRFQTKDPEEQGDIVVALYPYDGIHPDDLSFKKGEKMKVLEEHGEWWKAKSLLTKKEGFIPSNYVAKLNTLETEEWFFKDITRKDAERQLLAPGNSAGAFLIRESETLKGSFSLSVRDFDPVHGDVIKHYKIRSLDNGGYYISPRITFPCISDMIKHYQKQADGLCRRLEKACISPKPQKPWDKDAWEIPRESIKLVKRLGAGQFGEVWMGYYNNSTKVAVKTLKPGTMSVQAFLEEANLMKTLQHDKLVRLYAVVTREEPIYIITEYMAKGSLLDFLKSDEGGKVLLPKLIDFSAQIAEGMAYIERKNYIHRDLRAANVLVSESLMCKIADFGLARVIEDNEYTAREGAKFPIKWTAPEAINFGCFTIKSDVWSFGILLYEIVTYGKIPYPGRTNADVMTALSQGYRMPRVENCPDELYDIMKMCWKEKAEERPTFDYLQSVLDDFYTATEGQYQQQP
C#Cc1cccc(Nc2ncnc3cc(OCCOC)c(OCCOC)cc23)c1: 75.4%
COc1ccc(CNC(=O)Nc2ncc([N+](=O)[O-])s2)cc1: 97.7%
O=C(Nc1cccc(Nc2cc(Nc3cccc(C(F)(F)F)c3)ncn2)c1)C1CC1: 99.1%
CC(C)[C@H](CO)Nc1nc(Nc2cc(N)cc(Cl)c2)c2ncn(C(C)C)c2n1: 85.7%
Cc1cccc(-c2[nH]c(C(C)(C)C)nc2-c2ccc3c(c2)OCO3)n1: 82.8%
CNC(=O)c1cc(Oc2ccc(NC(=O)Nc3ccc(Cl)c(C(F)(F)F)c3)cc2)ccn1: 98.8%
O=C(O)c1ccc2c3c1cccc3c(=O)n1c3ccccc3nc21: 99.4%
Cc1ccc(Nc2nccc(N(C)c3ccc4c(C)n(C)nc4c3)n2)cc1S(N)(=O)=O: 58.9%
COc1cc2ncnc(Nc3ccc(Oc4ccccc4)cc3)c2cc1OC: 42.6%
COc1ccc(C(=O)Nc2sc3c(c2C(N)=O)CCCC3)cc1OC: 95.9%
Cc1ccc(NC(=O)c2ccc(CN3CCN(C)CC3)cc2)cc1Nc1nc(-c2cccnc2)cs1: 18.7%
Cc1nc(-c2ccccc2)c(-c2ccncc2)o1: 104%
Cn1sc(=O)n(Cc2ccccc2)c1=O: 98.9%
O=S(=O)(c1cccc2cnccc12)N1CCCNCC1: 102%
O=C(CCCc1ccc(-c2ccccc2F)cc1)Nc1ccc(O)cc1: 87.7%
NCCNc1ncc(C(N)=O)c(Nc2cccc(C(F)(F)F)c2)n1: 81.9%
O=C1NC(=O)C(c2cn(CCCO)c3ncccc23)=C1c1cnccn1: 101%

Sample 2 — host: human; matrix: microsomes or S9; concentration: 2 µM; time: 0.5 h; endpoint: remaining compound
Cc1ccc(S(=O)(=O)N(CC(=O)c2ccccc2)c2nc3nc(C)cc(C)n3n2)cc1: 88.1%
Nc1nc2n(c1C(=O)c1ccc(Br)cc1)CCCC2: 96.5%
C[C@@H](c1ccccc1)N1C(=O)OC[C@H]1CN1CCCC1CO (some centres unmarked): 77.3%
COC(=O)c1cccc2c1CN(c1cccc(C(=O)OC(C)(C)C)c1)C2=O: > 99%
CCCCCOC(=O)C1[C@H]2C(=O)N(CCCOC)C[C@]23C=C[C@H]1O3 (some centres unmarked): 26.9%
O=C1CCC2=C1C(c1ccccc1)Nc1ccccc1N2 (centres unmarked): 86.6%
O=S1(=O)c2ccccc2C(O)C(Cc2ccccc2O)N1Cc1cccnc1 (centres unmarked): 24.2%
O=C(NCc1cccc(F)c1)c1c(OCC2CC2)cc(=O)n2c1CCCCC2: 19.9%
O=C(NC(c1ccccc1)c1cccc2ccccc12)c1nc(=O)[nH][nH]1 (centres unmarked): 24.8%
Cc1cc(C(=O)Nc2nnc3n2CCCC3)n(C)n1: 95%
Cc1cc(C)c(NC(=O)NCc2ccc3nnn(C4CCC(=O)NC4=O)c(=O)c3c2)c(Br)c1 (centres unmarked): 33.5%
Cc1cc(O)c(C(=O)O)cc1S(=O)(=O)Nc1ccc(NC(=O)NCC2CCCO2)cc1 (centres unmarked): 78.9%

Sample 3 — technique: competition with immobilised ligand; concentration: 1 µM; endpoint: remaining binding
SMILES: COc1ccc2c(c1)O[C@@H](c1ccc(OC)c(OC)c1)C[C@H]2NC(=O)C1(c2ccc3c(c2)OC(F)(F)O3)CC1
Non-receptor tyrosine-protein kinase TNK1 (TNK1, Homo sapiens, UniProt Q13470); cell-free assay: 100%
Mitogen-activated protein kinase 9 (MAPK9, Homo sapiens, UniProt P45984); cell-free assay: 83%
Serine/threonine-protein kinase ULK1 (ULK1, Homo sapiens, UniProt O75385); cell-free assay: 75%
Cyclin-dependent kinase 11A (CDK11A, Homo sapiens, UniProt Q9UQ88); binding: 100%
Receptor-type tyrosine-protein kinase FLT3, autoinhibited (FLT3, Homo sapiens, UniProt P36888); cell-free assay: 80%
Cytoplasmic tyrosine-protein kinase BMX (BMX, Homo sapiens, UniProt P51813); cell-free assay: 91%
Tyrosine-protein kinase Lyn (LYN, Homo sapiens, UniProt P07948); cell-free assay: 100%
Ribosomal protein S6 kinase alpha-4, N-terminal kinase domain (RPS6KA4, Homo sapiens, UniProt O75676); cell-free assay: 94%
Calcium/calmodulin-dependent protein kinase type 1B (PNCK, Homo sapiens, UniProt Q6P2M8); cell-free assay: 100%
Citron Rho-interacting kinase (CIT, Homo sapiens, UniProt O14578); cell-free assay: 90%
High affinity nerve growth factor receptor (NTRK1, Homo sapiens, UniProt P04629); cell-free assay: 100%

Sample 4 — observed: AlphaScreen signal; technique: AlphaScreen counter screen; matrix: His6 peptide without bromodomain; concentration: 50 µM; notes: assay interference check; endpoint: inhibition
Cc1cccc(-c2nn3c(c2-c2ccnc4ccc(C(N)=O)cc24)CCC3)n1: -0.2%
O=C(NCc1ccco1)c1n[nH]c2ccccc12: 6.45%
NCCNc1nc(-c2ccccc2O)nc2ccccc12: 26.4%
Nc1nc(Nc2ccccc2)sc1C(=O)c1ccc(F)cc1: 63.4%
CCOC(=O)c1cnc2oc3ccc(O)cc3c2c1-c1ccccc1: 15.8%
O=C(Nc1cc(Cl)cc2c1[nH]c1cnccc12)c1cccnc1: 22.9%
CCc1ccc(-c2csc3nc[nH]c(=O)c23)cc1: 11.3%
Cc1cc(C(=O)C(C#N)=Cc2ccncc2)c(C)n1-c1ccccc1F: 37.4%
Cc1sc2nc[nH]c(=O)c2c1-c1ccc(Cl)cc1: 8.75%
O=C(Nc1ccc2[nH]nc(-c3ccncc3)c2c1)[C@@H]1CCN(CC(=O)N2CCN(c3ccc(-c4ncccn4)cc3)CC2)C1: -12.1%

Some of these lines once more (sample 4):
Nc1nc(Nc2ccccc2)sc1C(=O)c1ccc(F)cc1: 63.4%
CCOC(=O)c1cnc2oc3ccc(O)cc3c2c1-c1ccccc1: 15.8%
O=C(Nc1cc(Cl)cc2c1[nH]c1cnccc12)c1cccnc1: 22.9%
CCc1ccc(-c2csc3nc[nH]c(=O)c23)cc1: 11.3%
Cc1cc(C(=O)C(C#N)=Cc2ccncc2)c(C)n1-c1ccccc1F: 37.4%
Cc1sc2nc[nH]c(=O)c2c1-c1ccc(Cl)cc1: 8.75%
O=C(Nc1ccc2[nH]nc(-c3ccncc3)c2c1)[C@@H]1CCN(CC(=O)N2CCN(c3ccc(-c4ncccn4)cc3)CC2)C1: -12.1%
